Earlier results, collected from citations in different studies.
Numbered parts are unrelated; values within a part may stem from several laboratories. ± gives the spread as reported.

Study 1
Organism: SARS-CoV-2
Observed: viral cytopathic effect
Cell line: Vero E6
Tested at: 20 µM
Quantity: inhibition
SMILES = OC[C@H]1O[C@H]([S-])[C@H](O)[C@@H](O)[C@@H]1O.[Au+]; value = -0.05%
SMILES = O=C(N/N=C/c1ccc([N+](=O)[O-])o1)c1cc([N+](=O)[O-])cc([N+](=O)[O-])c1O; value = -0.18%
SMILES = O=C(Nc1ccc2c(O)cc(S(=O)(=O)[O-])cc2c1)Nc1ccc2c(O)cc(S(=O)(=O)[O-])cc2c1.[Na+].[Na+]; value = -0.04%

Study 2
Organism: SARS-CoV-2
Observed: cytopathic effect
Cell line: Caco-2
Tested at: 10 µM
Quantity: inhibition
SMILES = CS/C(N)=C(C#N)/C(C#N)=C(\N)SC; value = 17.7%
SMILES = Cc1c(OCC(F)(F)F)ccnc1C[S+]([O-])c1nc2ccccc2[nH]1 (stereo not shown); value = 19.3%
SMILES = CC1(C)C(/C=C/C=C/C=C/C=C2\N(CCCCS(=O)(=O)[O-])c3ccc4ccccc4c3C2(C)C)=[N+](CCCCS(=O)(=O)[O-])c2ccc3ccccc3c21.[Na+]; value = 2.4%
SMILES = O=c1cc(-c2ccc(O)cc2)oc2cc(O)cc(O)c12; value = -2.9%
SMILES = COc1cccc(C(=O)CCN[C@@H](C)[C@H](O)c2ccccc2)c1; value = 6.4%
SMILES = CCC(C)SSc1ncc[nH]1 (stereo not shown); value = 6.9%
SMILES = C=C1C(=O)[C@]23[C@H](O)[C@H]1CC[C@@H]2[C@@]12CO[C@]3(O)C[C@@H]1C(C)(C)CC[C@@H]2O; value = -4.1%
SMILES = O=C(O)c1cc(O)c2c(c1)[C@H]([C@H]1c3cc(C(=O)O)cc(O)c3C(=O)c3c(O[C@@H]4O[C@H](CO)[C@@H](O)[C@H](O)[C@H]4O)cccc31)c1cccc(O[C@@H]3O[C@H](CO)[C@@H](O)[C@H](O)[C@H]3O)c1C2=O; value = -10.6%
SMILES = C[C@@H]1O[C@@H](Oc2c(-c3cc(O)c(O)c(O)c3)oc3cc(O)cc(O)c3c2=O)[C@@H](O)[C@H](O)[C@H]1O; value = -11.4%
SMILES = Cc1ccc(-n2sc(=O)n(Cc3ccc(F)cc3)c2=O)cc1; value = -0.638%
SMILES = COc1ccc(OC)c2c(=S)c3ccccc3[nH]c12; value = -7.4%
SMILES = O=C(O)c1c(Cl)c(Cl)c(Cl)c(Cl)c1-c1c2cc(I)c(=O)c(I)c-2oc2c(I)c(O)c(I)cc12; value = 15.3%
SMILES = CC[C@H](CO)Nc1nc(NCc2ccc(-c3ccccn3)cc2)c2ncn(C(C)C)c2n1; value = 76.6%
SMILES = O=C(O)c1ccccc1-c1c2cc(Br)c(=O)cc-2oc2[c]([Hg][OH])c(O)c(Br)cc12; value = 16%
SMILES = C[C@@](Cc1ccc(O)c(O)c1)(NN)C(=O)O; value = 4.6%

Single results of other studies
Structure (SMILES) = C[C@@H]1CCO[C@H]2Cn3cc(C(=O)NCc4ccc(F)cc4F)c(=O)c(O)c3C(=O)N12; tested on = HIV-1; test = viral replication; test system = integrase N155H mutant; quantity = EC50; value = 3.6 ± 1.3 nM
Structure (SMILES) = O=C[C@H](C[C@@H]1CCNC1=O)NC(=O)[C@H](Cc1cccc(F)c1)NC(=O)c1cc2ccccc2[nH]1; tested on = Replicase polyprotein 1ab, main protease (rep, Severe acute respiratory syndrome coronavirus 2, UniProt P0DTD1); test = inhibitor; quantity = IC50; value = 40 ± 2 nM
Structure (SMILES) = O=C(c1cc(=O)[nH]c2ccccc12)N1CCN(c2ccc(Cl)c(Cl)c2)CC1CN1CCOCC1 (stereo not shown); tested on = SARS-CoV-2; test = antiviral activity; quantity = EC50; value = 820 nM
Structure (SMILES) = COc1ccc(C[C@H]2NC[C@H](O)[C@H]2OC(C)=O)cc1; tested on = SARS-CoV-2; test = viral infection; test system = Vero E6; quantity = IC50; value = 31.4 nM
Structure (SMILES) = Cc1nnc(C(=O)NC(C)(C)c2nc(C(=O)NCc3ccc(F)cc3)c(O)c(=O)n2C)o1; tested on = HIV-1; test = viral replication; test system = integrase G118R mutant; quantity = EC50; value = 36 ± 5 nM
Structure (SMILES) = CCN(CC)Cc1cc(Nc2ccnc3cc(Cl)ccc23)ccc1O; tested on = MERS-CoV; test = viral replication, ELISA; test system = Vero E6; quantity = EC50; value = 6210 nM
Structure (SMILES) = CC(C)(C)[C@H](NC(=O)C(F)(F)F)C(=O)N1C[C@H]2[C@@H]([C@H]1C(=O)N[C@H](C#N)C[C@@H]1CCNC1=O)C2(C)C; tested on = SARS-CoV-2; test = viral replication; test system = Calu-3; quantity = EC90; value = 7.6 ± 2.8 µM
Structure (SMILES) = C[C@H](NC(=O)[C@@H](c1cccnc1)N(C(=O)c1ccco1)c1ccc(-c2ccccc2)cc1)c1ccccc1; tested on = human calpain 1; test = enzyme activity, inhibitor; quantity = IC50; value = 6000 nM
Structure (SMILES) = Cn1cnc(Cn2c(=O)[nH]/c(=N\c3cc4cn(C)nc4cc3Cl)n(Cc3cc(F)c(F)cc3F)c2=O)n1; tested on = SARS-CoV-2; test system = human; conditions = concentration not given, phase II/III clinical trial; quantity = viral shedding time; value = decreased
Structure (SMILES) = COc1ccc([C@H]2c3[nH]c4ccc(Cl)cc4c3CCN2C(=O)Oc2ccc(Cl)cc2)cc1; tested on = SARS-CoV-2; test = viral replication, refers to: viral titre; conditions = cell culture; quantity = EC90; value = 0.053 µM
Structure (SMILES) = CN(C)CCCN1c2ccccc2Sc2ccc(Cl)cc21; tested on = MERS-CoV; test = viral replication, ELISA; test system = Vero E6; quantity = EC50; value = 9510 nM
Structure (SMILES) = CCC(CC)COC(=O)[C@H](C)N[P@](=O)(OC[C@H]1O[C@@](C#N)(c2ccc3c(N)ncnn23)[C@H](O)[C@@H]1O)Oc1ccccc1; tested on = Replicase polyprotein 1ab, nsp12 RdRp (rep, Severe acute respiratory syndrome coronavirus 2, UniProt P0DTD1); test = RdRp reporter activity, inhibitor; conditions = concentration not given; quantity = inhibition; value = inhibited
Structure (SMILES) = Fc1ncccc1OC[C@@H]1C=CCN1; tested on = rat alpha4beta2* nAChR; test = radioligand binding; test system = rat brain homogenate; conditions = added: [3H]cytisine; quantity = Ki; value = 0.5 nM
